Measured values collected from several papers.
Compare with care: the assays were run in different laboratories. ± marks the error that the study gave. Values after ≈ are worked out from the molar mass of the structure shown.

SMILES | assay | test system | setting | how to read | endpoint | value
O=C(c1ccc(F)c(F)c1Nc1ccc(I)cc1F)N1CC(O)([C@@H]2CCCCN2)C1 | refers to: retinal detachment | human patients | oral, dose not given, dose escalation, suspension, grade G2 |  | treatment-related adverse events | 0%
NC(=O)c1nc(F)c[nH]c1=O | UV-Vis spectrophotometry | supercritical CO2 | 120 min, 338 K, 18 MPa, 651.18 kg/m^3 |  | solubility | 307 µg/mL (≈ 1950 µM)
c1cc2ccc3cccc4ccc(c1)c2c34 | HPLC-fluorescence | Wistar rat, male, ileum | oral, 4 mg/kg, 24 h |  | tissue concentration | 67 ± 17.9 ng/g
C[C@]12CC[C@H](O)C[C@H]1CC[C@@H]1[C@@H]2CC[C@]2(C)[C@@H](c3ccc(=O)oc3)CC[C@]12O | HPLC-UV | water | 24 h, pH neutral, room temperature |  | aqueous solubility | 42.4 µg/mL (≈ 110 µM)
CC[C@H](C)[C@H](NC(=O)[C@H](CO)NC(=O)[C@H](C)NC(=O)[C@@H](NC(=O)CNC(=O)[C@H](CO)NC(=O)[C@@H](NC(=O)[C@@H](NC(=O)[C@H](Cc1c[nH]cn1)NC(=O)[C@@H]1CCCN1C(=O)[C@@H](NC(=O)[C@H](CC(C)C)NC(=O)[C@H](CO)NC(=O)[C@H](CC(C)C)NC(=O)[C@@H](N)Cc1ccccc1)[C@@H](C)CC)[C@@H](C)CC)C(C)C)C(C)C)C(=O)N[C@@H](C)C(=O)N[C@@H](CCCCN)C(=O)N[C@@H](Cc1c[nH]cn1)C(=O)N[C@@H](Cc1ccccc1)C(N)=O | UPLC-MS/MS | rat plasma | 0.05 µg/mL, 10 days, -20 °C, long-term stability |  | concentration found | 48 ng/mL
O=C(Nc1ccc(F)cc1)c1ccc(SCc2cc(OC(F)(F)F)ccc2B(O)O)nc1 |  | rat | p.o., 1 mg/kg |  | AUC | not detected
O=c1[nH]c(Cc2ccccn2)nc2c1cnn2C1CCOCC1 |  | healthy men, extensive metabolizers, plasma | oral, 100 mg single dose, tablet, geometric mean |  | Cmax | 1370 nM
CCCCCCCCCCCCCN(C)C | liver S9 substrate depletion | rainbow trout liver S9 | six-surfactant mixture |  | in vivo intrinsic clearance | 163 mL/h/g liver
CSCC[C@@H]1NC(=O)[C@H](CC(=O)O)NC(=O)CNC(=O)[C@H](CCCNC(=N)N)NC(=O)[C@H](C)NC(=O)[C@H](CCC(=O)O)NC(=O)[C@H](CCCNC(=N)N)NC(=O)[C@@H]2CSSC[C@@H]3NC(=O)[C@H](CO)NC(=O)[C@H]([C@@H](C)O)NC(=O)[C@@H]4CCCN4C(=O)[C@H](C)NC(=O)[C@H](Cc4c[nH]c5ccccc45)NC(=O)[C@H](CC(=O)O)NC(=O)CNC(=O)[C@H](CCCNC(=N)N)NC(=O)CNC(=O)[C@H](CCC(N)=O)NC(=O)[C@@H]4CCCN4C(=O)[C@@H](NC(=O)CNC(=O)C(C)F)CSSC[C@H](NC(=O)CNC(=O)[C@H](C)NC(=O)[C@H](CC(C)C)NC(=O)[C@H](CSSC[C@@H](C(=O)NCC(N)=O)NC(=O)[C@H]([C@@H](C)O)NC(=O)[C@H](CCCNC(=N)N)NC(=O)[C@@H]4CCCN4C1=O)NC(=O)[C@H](CC(=O)O)NC(=O)[C@H](CO)NC(=O)[C@H](CC(=O)O)NC(=O)[C@H](CCC(N)=O)NC(=O)[C@H](CO)NC3=O)C(=O)N[C@@H](C(C)C)C(=O)N2 (stereo partly shown) [fluorine-18 labelled] |  | nude mice U-87 MG xenograft, pancreas | intravenous, 0.5 h |  | tissue uptake | 0.32 ± 0.13 %ID/g
CC[C@H](C)[C@H](NC(=O)[C@@H](N)CCCNC(=N)N)C(=O)N[C@H](C(=O)N1CCC[C@H]1C(=O)N[C@@H](C)C(N)=O)C(C)C |  | human, plasma | intravenous, 5 mg/kg, single dose, healthy volunteers |  | AUC(0-t) | 1150 ng·h/mL
CC[C@H](C)[C@H](NC(=O)[C@H](C)NC(=O)[C@H](CCCCN)NC(=O)[C@H](CC(C)C)NC(=O)[C@H](C)NC(=O)[C@@H](NC(=O)[C@H](Cc1c[nH]cn1)NC(=O)[C@H](CC(C)C)NC(=O)[C@@H](NC(=O)[C@@H](NC(=O)[C@H](CCCCN)NC(=O)[C@H](CCCCN)NC(=O)[C@H](C)NC(=O)[C@H](CO)NC(=O)[C@H](CCCCN)NC(=O)[C@H](Cc1ccccc1)NC(=O)[C@@H](NC(=O)[C@H](CCCCN)NC(=O)[C@H](CC(C)C)NC(=O)[C@H](Cc1ccccc1)NC(=O)[C@H](CO)NC(=O)[C@H](CCCCN)NC(=O)[C@H](Cc1c[nH]c2ccccc12)NC(=O)[C@H](CCCCN)NC(C)=O)[C@@H](C)O)[C@@H](C)O)C(C)C)[C@@H](C)O)C(=O)N[C@@H](CO)C(=O)N[C@@H](CO)C(N)=O | RP-HPLC | Zorbax 300 SB-C18 column | 65 °C |  | retention time | 26.3 min
Clc1ccc(Cl)c(-c2c(Cl)ccc(Cl)c2Cl)c1Cl |  | wild-type mice, male, whole blood | oral, 6.63 mg/kg single, 48 h, added: racemic dose |  | enantiomeric fraction | 0.75 ± 0.02
CC1(C)S[C@@H]2[C@H](NC(=O)[C@@H](C(=O)O)c3ccsc3)C(=O)N2[C@H]1C(=O)O |  | rat plasma | 30 ng/mL, 24 h, room temperature, short-term stability | baseline: nominal concentration | relative error | -4%
CC(=O)N[C@H](CCCCNC(=O)C(C)F)C(=O)N[C@@H](CS)C(=O)N[C@@H](CS)C(=O)N[C@@H](CCC(=O)O)C(=O)N[C@@H](Cc1c[nH]cn1)C(=O)N[C@H](Cc1ccccc1)C(=O)N[C@@H](CCCNC(=N)N)C(=O)N[C@@H](Cc1c[nH]c2ccccc12)C(=O)N[C@@H](CS)C(=O)N[C@@H](CCCNC(=N)N)C(=O)N1CCC[C@H]1C(=O)N[C@H](C(N)=O)C(C)C (stereo partly shown) [fluorine-18 labelled] |  | nude mice, A375M xenograft, bone | intravenous, 2 h |  | tissue uptake | 0.23 ± 0.11 %ID/g
O[C@H]1CCCN[C@@H]1CCCn1cnc2c(Cl)c(Cl)ccc21 |  | healthy human volunteers, plasma | oral, 25 mg, day 1, multiple ascending dose |  | half-life | 4.2 h
[123I]c1cncc(OC[C@@H]2CCN2)c1 | SPECT | human, thalamus | intravenous bolus, 8.8 mCi | baseline: plasma | tissue/plasma ratio | 15
CC(C)Nc1nc(Cl)nc(NC(C)C)n1 | LC-MS/MS | herbicide solution | 2 h, 23 °C, added: 254 nm UV exposure |  | remaining amount | 15.5 ± 5.07%
Cc1cc2c(s1)Nc1ccccc1N=C2N1CCN(C)CC1 |  | pregnant SWV mice | oral, 16.05 mg/kg, GD 0, dosed GD 4 to 17 |  | maternal body weight | 27.8 ± 2.7 g
CN[C@@](C)(C[18F])C(=O)O |  | SCID mouse U87 xenograft, bone | 60 min, post injection |  | tissue uptake | 4 ± 1 %ID/g
Oc1cc(Cl)c(Cl)c(-c2cc(Cl)ccc2Cl)c1Cl | enantioselective GC, refers to: hydroxylated metabolite | phenobarbital-treated rat, rat liver microsomes | 50 µM, 30 min |  | enantiomeric fraction | 0.32
O=C1Nc2ccc(Cl)cc2[C@@](C#CC2CC2)(C(F)(F)F)O1 | LC-MS/MS | female hu-HSC-RAG mouse, brain | concentration not given, 1 day after 10-day dosing |  | maximum tissue concentration | 1400 ng/g
CCCCCCCCCC[N+](C)(C)CCCCCCCCCC | ultrafiltration | human serum |  |  | unbound fraction in blood | 0.08
